Measured values pooled from the literature.

CC(C)=CCc1c(O)ccc2c1O[C@H]1c3cc4c(cc3OC[C@@H]21)OC(C)(C)C=C4
MIC (Streptococcus pyogenes; ATCC 19615): inactive

CN[C@@H]1[C@H](O)[C@H](NC)[C@H]2O[C@]3(O)[C@H](O[C@@H]2[C@H]1O)O[C@H](C)C[C@]3(O)CNCCc1nccs1
MIC (Mycobacteroides abscessus; microbial growth; ATCC19977; 5 days): > 200 µg/mL

CC[C@@H](C)[C@@H](NC(=O)[C@@H](C)NC(=O)[C@@H](CCCCN)NC(=O)[C@@H](CC(C)C)NC(=O)[C@@H](CC(C)C)NC(=O)[C@H](NC(=O)[C@@H](CCCCN)NC(=O)[C@@H](CC(C)C)NC(=O)[C@@H](C)NC(=O)[C@@H](CCCCN)NC(=O)[C@@H](CCCCN)NC(=O)[C@@H](CCCCN)NC(=O)[C@@H](C)NC(=O)[C@@H](CCCCN)NC(=O)[C@@H](CO)NC(=O)[C@@H](Cc1ccccc1)NC(=O)[C@H](NC(=O)[C@@H](CCCCN)NC(=O)[C@@H](CC(C)C)NC(=O)[C@@H](Cc1ccccc1)NC(=O)[C@@H](CO)NC(=O)[C@@H](CCCCN)NC(=O)[C@@H](Cc1c[nH]c2ccccc12)NC(=O)[C@@H](CCCCN)NC(C)=O)[C@H](C)O)[C@H](C)O)C(=O)N[C@H](CO)C(=O)N[C@H](CCCCN)C(N)=O
MIC (Acinetobacter baumannii; 964, Mueller-Hinton broth; 24 h, 37 °C): 0.7 µM

CO[C@H]1/C=C/O[C@@]2(C)Oc3c(C)c(O)c4c(c3C2=O)C2=NC3(CCN(CC(C)C)CC3)NC2=C(NC(=O)/C(C)=C\C=C\[C@H](C)[C@H](O)[C@@H](C)[C@@H](O)[C@@H](C)[C@H](OC(=O)c2ccc(C)cc2)[C@@H]1C)C4=O
MIC (Mycobacteroides abscessus; ATCC 19977 wild type; 90% growth inhibition): 0.2 µM

CC1(C)S[C@@H]2[C@H](NC(=O)[C@H](NC(=O)C3=C(O)C(c4ccccc4F)NC3=O)c3ccccc3)C(=O)N2[C@H]1C(=O)O (stereo partly shown)
MIC (Proteus vulgaris; microbial growth, broth dilution; ATCC33420): 6.25 µg/mL

CO[C@H]1/C=C/O[C@@]2(C)Oc3c(C)c(O)c4c(c3C2=O)C2=NC3(CCN(CC(C)C)CC3)NC2=C(NC(=O)/C(C)=C\C=C\[C@H](C)[C@H](O)[C@@H](C)[C@@H](O)[C@@H](C)[C@H](OC(=O)c2ccccc2Cl)[C@@H]1C)C4=O
MIC (Mycobacteroides abscessus; ATCC 19977 wild type; 90% growth inhibition): 0.043 µM

CC(=O)N[C@H](CCCCN)C(=O)N[C@H](CC(C)C)C(=O)N[C@H](CCCCN)C(=O)N[C@H](CO)C(=O)N[C@H](CC(C)C)C(=O)N[C@H](CC(C)C)C(=O)N[C@H](CCCCN)C(=O)N[C@@H](C(=O)N[C@H](CC(C)C)C(=O)N[C@H](CO)C(=O)N[C@H](CCCCN)C(=O)N[C@H](C)C(=O)N[C@H](CCCCN)C(=O)N[C@H](CCCCN)C(=O)N[C@H](CCCCN)C(=O)N[C@H](CCCCN)C(=O)N[C@H](CC(C)C)C(=O)N[C@H](CCCCN)C(=O)N[C@@H](C(=O)N[C@H](CC(C)C)C(=O)N[C@H](CC(C)C)C(=O)N[C@H](CCCCN)C(=O)N[C@H](C)C(=O)N[C@H](CC(C)C)C(=O)N[C@H](CO)C(=O)N[C@H](CCCCN)C(N)=O)[C@H](C)O)[C@H](C)O
MIC (Acinetobacter baumannii; 884, Mueller-Hinton broth; 24 h, 37 °C): 0.3 µM

CN(C)c1cc(CNC(C)(C)C)c(O)c2c1C[C@H]1C[C@H]3[C@H](N(C)C)C(O)=C(C(N)=O)C(=O)[C@@]3(O)C(O)=C1C2=O
MIC (Enterococcus faecium; 494, Tet M and Tet L): 8 µg/mL

CCCCCCCCCCCCCCCCCCCCCCSCC1OC(OC2C(N)CC(N)C(OC3OC(CN)C(O)CC3N)C2O)C(O)C(N)C1O (stereo not shown)
MIC (Streptococcus mutans; UA159): > 150 µg/mL

CC[C@@H](C)[C@@H](NC(=O)[C@@H](C)NC(=O)[C@@H](CCCCN)NC(=O)[C@@H](CC(C)C)NC(=O)[C@@H](C)NC(=O)[C@H](NC(=O)[C@@H](CCCCN)NC(=O)[C@@H](CC(C)C)NC(=O)[C@H](NC(=O)[C@@H](CCCCN)NC(=O)[C@@H](CCCCN)NC(=O)[C@@H](CCCCN)NC(=O)[C@@H](C)NC(=O)[C@@H](CCCCN)NC(=O)[C@@H](CO)NC(=O)[C@@H](Cc1ccccc1)NC(=O)[C@H](NC(=O)[C@@H](CCCCN)NC(=O)[C@@H](CC(C)C)NC(=O)[C@@H](Cc1ccccc1)NC(=O)[C@@H](CO)NC(=O)[C@@H](CCCCN)NC(=O)[C@@H](Cc1c[nH]c2ccccc12)NC(=O)[C@@H](CCCCN)NC(C)=O)[C@H](C)O)C(C)C)[C@H](C)O)C(=O)N[C@H](CO)C(=O)N[C@H](CCCCN)C(N)=O
MIC (Acinetobacter baumannii; broth microdilution; ATCC 17978; 24 h, 37 °C): 0.7 µM

COc1ccc2c(oc3c4ccc(O)cc4oc(=O)c23)c1CC=C(C)C
MIC (Streptococcus pyogenes; ATCC 19615): inactive

O=C(NCc1nc(-c2ccc(Br)cc2)c[nH]1)Nc1ncc(Sc2ccccn2)s1
MIC (Streptococcus pyogenes; broth microdilution; ATCC 19615; with: verapamil 50 µg/mL): 0.125 µM

CN(C)c1cc(CNC2CCCCC2)c(O)c2c1C[C@H]1C[C@H]3[C@H](N(C)C)C(O)=C(C(N)=O)C(=O)[C@@]3(O)C(O)=C1C2=O
MIC (Enterococcus faecium; 494, Tet M and Tet L): 1 µg/mL

CCCCCCSCC1OC(OC2C(N)CC(N)C(OC3OC(CN)C(O)CC3N)C2O)C(O)C(N)C1O (stereo not shown)
MIC (Streptococcus mutans; UA159): > 150 µg/mL

CC(C)c1ccc(Cn2ccc([C@H](C)[C@](O)(Cn3cnnn3)c3ccc(F)cc3F)n2)cc1
MIC (Pichia kudriavzevii; CLSI broth microdilution; 4946; 24 h): < 0.008 µg/mL

CO[C@H]1/C=C/O[C@@]2(C)Oc3c(C)c(O)c4c(c3C2=O)C2=NC3(CCN(CC(C)C)CC3)NC2=C(NC(=O)/C(C)=C\C=C\[C@H](C)[C@H](O)[C@@H](C)[C@@H](O)[C@@H](C)[C@H](OC(=O)c2ccccc2F)[C@@H]1C)C4=O
MIC (Mycobacteroides abscessus; ATCC 19977 wild type; 90% growth inhibition): 0.06 µM

COc1ccc2c(c1CC=C(C)C)O[C@H]1c3cc4c(cc3OC[C@@]21O)OC(C)(C)C=C4
MIC (Streptococcus pyogenes; ATCC 19615): inactive

CO[C@H]1/C=C/O[C@@]2(C)Oc3c(C)c(O)c4c(c3C2=O)C2=NC3(CCN(CC(C)C)CC3)NC2=C(NC(=O)/C(C)=C\C=C\[C@H](C)[C@H](O)[C@@H](C)[C@@H](O)[C@@H](C)[C@H](OC(=O)c2ccccc2-c2ccccc2)[C@@H]1C)C4=O
MIC (Mycobacteroides abscessus; ATCC 19977 wild type; 90% growth inhibition): 0.26 µM

CN[C@@H]1[C@H](O)[C@H](NC)[C@H]2O[C@]3(O)[C@H](O[C@@H]2[C@H]1O)O[C@H](C)C[C@@]3(O)CNCCc1cccs1
MIC (Mycobacteroides abscessus; microbial growth; ATCC19977; 5 days): 4 µg/mL

CC(=O)[O-].CC(=O)[O-].CN(C)C(=N)NC(=N)N.CN(C)C(=N)NC(=N)N.O.O.[Cu+2]
MIC (Salmonella enteritidis; broth microdilution): 128 µg/mL

CC(=O)N[C@H](CCCCN)C(=O)N[C@H](CC(C)C)C(=O)N[C@H](CCCCN)C(=O)N[C@H](CO)C(=O)N[C@H](CC(C)C)C(=O)N[C@H](CC(C)C)C(=O)N[C@H](CCCCN)C(=O)N[C@@H](C(=O)N[C@H](CC(C)C)C(=O)N[C@H](CO)C(=O)N[C@H](CCCCN)C(=O)N[C@H](C)C(=O)N[C@H](CCCCN)C(=O)N[C@H](CCCCN)C(=O)N[C@H](CCCCN)C(=O)N[C@H](CC(C)C)C(=O)N[C@H](CC(C)C)C(=O)N[C@H](CCCCN)C(=O)N[C@@H](C(=O)N[C@H](C)C(=O)N[C@H](CC(C)C)C(=O)N[C@H](CCCCN)C(=O)N[C@H](C)C(=O)N[C@H](CC(C)C)C(=O)N[C@H](CO)C(=O)N[C@H](CCCCN)C(N)=O)[C@H](C)O)[C@H](C)O
MIC (Acinetobacter baumannii; 649, Mueller-Hinton broth; 24 h, 37 °C): 0.3 µM

COC1C=COC2(C)Oc3c(C)c(O)c4c(c3C2=O)C2=NC3(CCN(CC(C)C)CC3)NC2=C(NC(=O)C(C)=CC=CC(C)C(O)C(C)C(O)C(C)C(OC(=O)c2cncnc2)C1C)C4=O (stereo not shown)
MIC (Mycobacteroides abscessus; microbial growth; ATCC19977): 0.029 µM

CC(C)C[C@H](NC(=O)[C@H](CC(N)=O)NC(=O)[C@H](CCCNC(=N)N)NC(=O)[C@@H](CC(C)C)NC(=O)[C@H](Cc1ccccc1)NC(=O)[C@H](CC(=O)O)NC(=O)[C@H](CCCCN)NC(=O)[C@@H](CC(C)C)NC(=O)[C@H](CCCNC(=N)N)NC(=O)[C@H](CCC(N)=O)NC(=O)[C@@H](NC(=O)[C@@H](CC(C)C)NC(=O)[C@H](CCCNC(=N)N)NC(=O)[C@H](CCCCN)NC(=O)[C@H](Cc1ccccc1)NC(=O)CN)C(C)C)C(=O)N[C@H](C(N)=O)C(C)C
MIC (Escherichia coli, Acinetobacter baumannii, Enterobacter cloacae): 6.2 to 25 µM

CC1CCN(Cc2cc(N(C)C)c3c(c2O)C(=O)C2=C(O)[C@]4(O)C(=O)C(C(N)=O)=C(O)[C@@H](N(C)C)[C@@H]4C[C@@H]2C3)CC1
MIC (Enterococcus faecium; 494, Tet M and Tet L): 0.25 µg/mL

O=C1OCC(O)N1/N=C/c1ccc([N+](=O)[O-])o1 (stereo not shown)
MIC (Helicobacter pylori; microbial growth, broth dilution; SS1; 48 h): < 0.0976 µg/mL

Repeated from above:
CN[C@@H]1[C@H](O)[C@H](NC)[C@H]2O[C@]3(O)[C@H](O[C@@H]2[C@H]1O)O[C@H](C)C[C@]3(O)CNCCc1nccs1
MIC (Mycobacteroides abscessus; microbial growth; ATCC19977; 5 days): > 200 µg/mL

CO[C@H]1/C=C/O[C@@]2(C)Oc3c(C)c(O)c4c(c3C2=O)C2=NC3(CCN(CC(C)C)CC3)NC2=C(NC(=O)/C(C)=C\C=C\[C@H](C)[C@H](O)[C@@H](C)[C@@H](O)[C@@H](C)[C@H](OC(=O)c2ccc(C)cc2)[C@@H]1C)C4=O
MIC (Mycobacteroides abscessus; ATCC 19977 wild type; 90% growth inhibition): 0.2 µM

CC(=O)N[C@H](CCCCN)C(=O)N[C@H](CC(C)C)C(=O)N[C@H](CCCCN)C(=O)N[C@H](CO)C(=O)N[C@H](CC(C)C)C(=O)N[C@H](CC(C)C)C(=O)N[C@H](CCCCN)C(=O)N[C@@H](C(=O)N[C@H](CC(C)C)C(=O)N[C@H](CO)C(=O)N[C@H](CCCCN)C(=O)N[C@H](C)C(=O)N[C@H](CCCCN)C(=O)N[C@H](CCCCN)C(=O)N[C@H](CCCCN)C(=O)N[C@H](CCCCN)C(=O)N[C@H](CC(C)C)C(=O)N[C@H](CCCCN)C(=O)N[C@@H](C(=O)N[C@H](CC(C)C)C(=O)N[C@H](CC(C)C)C(=O)N[C@H](CCCCN)C(=O)N[C@H](C)C(=O)N[C@H](CC(C)C)C(=O)N[C@H](CO)C(=O)N[C@H](CCCCN)C(N)=O)[C@H](C)O)[C@H](C)O
MIC (Acinetobacter baumannii; 884, Mueller-Hinton broth; 24 h, 37 °C): 0.3 µM

CO[C@H]1/C=C/O[C@@]2(C)Oc3c(C)c(O)c4c(c3C2=O)C2=NC3(CCN(CC(C)C)CC3)NC2=C(NC(=O)/C(C)=C\C=C\[C@H](C)[C@H](O)[C@@H](C)[C@@H](O)[C@@H](C)[C@H](OC(=O)c2ccccc2F)[C@@H]1C)C4=O
MIC (Mycobacteroides abscessus; ATCC 19977 wild type; 90% growth inhibition): 0.06 µM
